Experimental data collected from several papers.
Protocols differ between the studies behind these lines. Several values in a cell are separate wells, animals, samples, runs or records. Numbers after ± are the reported error.
gag-pol reverse transcriptase: Gag-Pol polyprotein, reverse transcriptase (gag-pol, Human immunodeficiency virus 1, UniProt P03366)
ACTA1 pyrene-labeled: Actin, alpha skeletal muscle, pyrene-labeled (ACTA1, Oryctolagus cuniculus, UniProt P68135)
Voltage-dependent P/Q-type calcium channel subunit alpha-1A: Voltage-dependent P/Q-type calcium channel subunit alpha-1A (Homo sapiens, UniProt O00555)

CC(=O)Nc1c2sscc-2[nH]c1=O — inhibition (Isoleucine--tRNA ligase (ileS, Staphylococcus aureus, UniProt Q5HGN8); ATP-pyrophosphate exchange; up to 100 µM): no inhibition
CC(C)N1CCC[C@H]1CNC(=O)c1cn(C2CCCC2)c(=O)c2c1c1ccccc1n2C — inhibition (nicotinic acetylcholine receptor (human); radioligand binding; 10 µM): 8%
CC(C)[C@@H](O)CC[C@@H](C)[C@H]1CC[C@H]2[C@@H]3CC=C4C[C@@H](O)CC[C@]4(C)[C@H]3CC[C@]12C — inhibition (Glutamate NMDA receptor; GRIN1/GRIN2B (GRIN1/GRIN2B, Homo sapiens, UniProt Q05586+Q13224); proton inhibition of current, two-electrode voltage clamp; Xenopus oocytes; concentration not given, current ratio pH 6.8 over pH 7.6, added: positive allosteric modulator 10 µM): 25 ± 1.7%
COc1cc(Nc2ncc(F)c(Nc3ccc4c(n3)NC(=O)C(C)(C)O4)n2)cc(OC)c1OC — inhibition (BMP2K (Homo sapiens, UniProt Q9NSY1); KINOMEscan; 10 µM, BIKE): 96%
O=C1CSC(c2cccc(Cl)c2Cl)N1c1nc(-c2ccc(S(=O)(=O)N3CCOCC3)cc2)cs1 (centres unmarked) — inhibition (gag-pol reverse transcriptase; 4 µM): 11.6%
O=C1O[C@H]2[C@@H]3OC(=O)c4cc(O)c(O)c(O)c4-c4c(O)c(O)c5oc(=O)c6c(c(O)c(O)c7oc(=O)c4c5c76)-c4c(cc(O)c(O)c4O)C(=O)OC[C@H]3OC(O)[C@@H]2OC(=O)c2cc(O)c(O)c(O)c2-c2c1cc(O)c(O)c2O (mixture of isomers) — inhibition (PDIA3 (Homo sapiens, UniProt P30101); di-eosin-GSSG reductase activity; 20 µM, 15 min): inhibited
CC[C@H](C)[C@H](NC(=O)[C@@H](NC(=O)[C@H](N)Cc1ccccc1)C(C)C)C(=O)N[C@@H](C)C(N)=O — inhibition (APP (Homo sapiens, UniProt P05067); amyloid-beta aggregation, thioflavin T fluorescence; 2.0 µM, 96 h, added: 2 µM amyloid-beta): 94%
CCN1C(=O)SCC1C1(OC)CC2CC(CCC(C)C=CC=CCCC(C)=CC(=O)O2)O1 (centres unmarked) — inhibition (ACTA1 pyrene-labeled; actin polymerization, pyrene actin; 0.1 µM; reference: vehicle): 0%
O=C1CSC(c2c(Cl)cccc2Cl)N1c1nc(-c2ccc(S(=O)(=O)N3CCOCC3)cc2)cs1 (centres unmarked) — inhibition (gag-pol reverse transcriptase; 4 µM): 2.48%
NC/C(=C\F)COc1cccc(Cn2c(=S)[nH]c(=O)c3[nH]cnc32)c1 — inhibition (rat central GABAA receptor; radioligand binding; 10 µM, added: flunitrazepam): < 50%
C#Cc1n[nH]c2c(-c3cn([C@@H](C)c4ccccc4)c(=O)[nH]c3=O)cc(F)cc12 — inhibition (Phosphatidylinositol 4,5-bisphosphate 3-kinase catalytic subunit delta isoform, with p85 alpha (PIK3CD, Homo sapiens, UniProt O00329); kinase activity, inhibitor; 100 nM): -0.9%
Cc1ncc(C)n2nc(/C=C/c3nc(N4CCCC4)cc(N4CCOCC4)n3)nc12 — inhibition (CHRNA1/CHRNB1/CHRND (Homo sapiens, UniProt P02708+P11230+Q07001); radioligand binding; 10 µM): 25%
O=C(Nc1cccnn1)N1CCC(=Cc2cccc(Oc3ccc(C(F)(F)F)cn3)c2)CC1 — inhibition (central imidazoline I2 receptor, rat; binding; 10 µM, added: [3H]idazoxan): 4%
COC(C(=O)N1C(=O)SCC1C1(OC)CC2CC(CCC(C)C=CC=CCCC(C)=CC(=O)O2)O1)c1ccccc1 (centres unmarked) — inhibition (ACTA1 pyrene-labeled; actin polymerization, pyrene actin; 1 µM; reference: vehicle): 13%
O=C1CSC(c2cccc(Cl)c2Cl)N1c1cccc(S(=O)(=O)Nc2nccs2)c1 (centres unmarked) — inhibition (gag-pol reverse transcriptase; 4 µM): 6.89%
Nc1ccncc1 — inhibition (Voltage-dependent P/Q-type calcium channel subunit alpha-1A; antagonist; 10 µM): 21%
O=C(Nc1cnccc1Cl)N1CCN(Cc2ccc3c(c2)OC(F)(F)O3)CC1 — inhibition (MAPKAPK5 (Homo sapiens, UniProt Q8IW41); kinase activity, inhibitor; 50 µM, added: PRAK peptide substrate): -9%
CN1CCN(c2cc(-c3ccncc3)c(-c3ccc4ccccc4c3)nn2)CC1 — inhibition (MRGPRX2 (Homo sapiens, UniProt Q96LB1); antagonist, FLIPR; 10 µM): 31.9%
COc1cccc(C2SCC(=O)N2c2nc(-c3ccc(S(=O)(=O)N4CCOCC4)cc3)cs2)c1 (centres unmarked) — inhibition (gag-pol reverse transcriptase; 4 µM): 7.63%
CO[C@]1([C@@H]2CSC(=O)N2C)C[C@H]2C[C@@H](CC[C@H](C)/C=C\C=C\CC/C(C)=C\C(=O)O2)O1 — inhibition (ACTA1 pyrene-labeled; actin polymerization, pyrene actin; 1 µM; reference: vehicle): 19%
FC(F)(F)c1cccc(Nc2nc(NCCOc3ccccc3)nc3[nH]cnc23)c1 — inhibition (PRKCB (Homo sapiens, UniProt P05771); Z′-LYTE kinase; 5 µM): -2% and 15%
COc1ccc(N2C(=O)N(c3c(C)cccc3Cl)Cc3cnc(Nc4ccc(C5CCN(C)CC5)cc4OC)nc32)nc1 — inhibition (EPHA1 (Homo sapiens, UniProt P21709); kinase activity; 0.5 µM): 98%
O=C1CSC(c2ccc(Br)cc2)N1c1nc(-c2ccc(S(=O)(=O)N3CCOCC3)cc2)cs1 (centres unmarked) — inhibition (gag-pol reverse transcriptase; 4 µM): 0%
C#Cc1n[nH]c2c(-c3cn(C(C)c4ccccn4)c(=O)[nH]c3=O)cc(F)cc12 (centres unmarked) — inhibition (5'-AMP-activated protein kinase catalytic subunit alpha-2, with beta1 gamma1 (PRKAA2, Homo sapiens, UniProt P54646); kinase activity, inhibitor; 1 µM): 6.9%
NC(=O)c1cccc(-c2c[nH]c3ncnc(N4CCOCC4)c23)c1 — inhibition (STK3 (Homo sapiens, UniProt Q13188); kinase activity, inhibitor, PhosphoSens kinetic; concentration not given, 2 h, added: ATP at Km): inhibited
CCNC(=O)[C@H]1O[C@@H](n2cnc3c(N)ncnc32)[C@H](O)[C@@H]1O — inhibition (rat adenosine A2 receptor; binding; 1 × 10 µM): 96.3%
CO[C@]1([C@@H]2CSC(=O)N2Cc2ccccc2)C[C@H]2C[C@@H](CC[C@H](C)/C=C\C=C\CC/C(C)=C\C(=O)O2)O1 — inhibition (ACTA1 pyrene-labeled; actin polymerization, pyrene actin; 0.1 µM; reference: vehicle): 33%
CN(C(=O)n1cnc(-c2ccc[n+]([O-])c2)c1)C1CCCCC1 — inhibition (central imidazoline I2 receptor, rat; binding; 50 µM, added: [3H]idazoxan): -10%
C[C@H](C(=O)N[C@H]1COc2ccccc2[C@@H]1S(C)(=O)=O)c1ccc(F)cc1 — inhibition (CHUK (Homo sapiens, UniProt O15111); enzyme activity; 10 µM, Eurofins selectivity panel): -1%
CN(CCN1CCC(OC(=O)Nc2ccccc2-c2ccccc2)CC1)C(=O)c1ccc(CN2CCC(C(N)=O)CC2)cc1 — inhibition (human androgen receptor; radioligand binding; 1 µM, added: [3H]mibolerone 1.0 nM): 3%
C/C1=C/C(=O)O[C@@H]2C[C@@H](CC[C@H](C)/C=C\C=C\CC1)O[C@@](O)([C@@H]1CSC(=O)N1CO)C2 — inhibition (ACTA1 pyrene-labeled; actin polymerization, pyrene actin; 1 µM; reference: vehicle): 90%
O=C1CSC(c2cccc(Cl)c2Cl)N1c1nc(-c2ccc(S(=O)(=O)N3CCCC3)cc2)cs1 (centres unmarked) — inhibition (gag-pol reverse transcriptase; 4 µM): 10.2%
COc1cc2c(c(OC)c1OC)-c1ccc(OC)c(=O)cc1[C@@H](NC(C)=O)CC2 — inhibition (Voltage-dependent P/Q-type calcium channel subunit alpha-1A; ion current, antagonist; HEK293; 10 µM): 3%
Cn1cc(-c2cccc(N3CCc4c(sc5c4CC(C)(C)C5)C3=O)c2CO)cc(Nc2ccncn2)c1=O — inhibition (Protein kinase C beta type, isoform beta-II (PRKCB, Homo sapiens, UniProt P05771); kinase activity, inhibitor, SelectScreen kinase profiling; 1 µM, added: ATP at apparent Km): -1%
O=c1ccc2ccccc2o1 — inhibition (Htr1b (Rattus norvegicus, UniProt P28564); radioligand binding, antagonist; 10 µM): 11.9%

Some of these lines once more:
CC(=O)Nc1c2sscc-2[nH]c1=O — inhibition (Isoleucine--tRNA ligase (ileS, Staphylococcus aureus, UniProt Q5HGN8); ATP-pyrophosphate exchange; up to 100 µM): no inhibition
NC/C(=C\F)COc1cccc(Cn2c(=S)[nH]c(=O)c3[nH]cnc32)c1 — inhibition (rat central GABAA receptor; radioligand binding; 10 µM, added: flunitrazepam): < 50%
CN(CCN1CCC(OC(=O)Nc2ccccc2-c2ccccc2)CC1)C(=O)c1ccc(CN2CCC(C(N)=O)CC2)cc1 — inhibition (human androgen receptor; radioligand binding; 1 µM, added: [3H]mibolerone 1.0 nM): 3%
C/C1=C/C(=O)O[C@@H]2C[C@@H](CC[C@H](C)/C=C\C=C\CC1)O[C@@](O)([C@@H]1CSC(=O)N1CO)C2 — inhibition (ACTA1 pyrene-labeled; actin polymerization, pyrene actin; 1 µM; reference: vehicle): 90%
CO[C@]1([C@@H]2CSC(=O)N2C)C[C@H]2C[C@@H](CC[C@H](C)/C=C\C=C\CC/C(C)=C\C(=O)O2)O1 — inhibition (ACTA1 pyrene-labeled; actin polymerization, pyrene actin; 1 µM; reference: vehicle): 19%
